Measurements pooled from the literature.
Numbered parts are unrelated; each lists some results of a single study.

Sample 1
Target: Histone acetyltransferase KAT6A, winged helix 1, GST fusion (KAT6A, Homo sapiens, UniProt Q92794, residues 1-85)
Method: protein binding microarray
Form: double-stranded DNA, one strand shown
Matrix: in vitro
Tested at: not given
Notes: 8-mer, flanks averaged, mean of 2 arrays, mostly near background
Baseline: not given
Reading: higher = stronger binding
Quantity: E-score
Residues (chain): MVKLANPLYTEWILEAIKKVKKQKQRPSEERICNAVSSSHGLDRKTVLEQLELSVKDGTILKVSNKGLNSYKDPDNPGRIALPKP
CTTGCGAC: -0.0498
AAGACTAG: -0.0881
GACGCTCC: 0.28
CCAGCGAA: -0.125
AATGATCC: -0.0109
ATCTTAAC: -0.0759
GACTGTAC: -0.0484
AGAGCGGC: 0.359
AACCGTCC: 0.138
GATAGCGA: 0.0444
CCGAACTC: -0.268
GACAGAAA: -0.134
ACTGCGCT: 0.149
AGGTAAGG: -0.176
CTATATCA: -0.06
AATTCCAT: -0.179
GGTCATCA: 0.00993
ACTTGACT: -0.32
CCGGATCG: 0.086
AGCGGTCG: 0.198
CCAGGATC: -0.111
GTTGTATA: -0.1
CGAGGAGA: -0.137
CCGGGGTA: 0.193
CTACTTGC: -0.0179

Sample 2
Target: Prothrombin, mature alpha-thrombin (F2, Homo sapiens, UniProt P00734)
Method: aptamer microarray, sandwich
Form: DNA with 2'F-ANA
Matrix: in vitro
Tested at: 200 nM
Notes: whole 15-mer aptamer, many near background
Together with: Cy3 exosite-II aptamer, 400 nM
Reading: higher = stronger binding
Quantity: mean fluorescence intensity
Strand: GGTTGGTGTGGTTGG
2'F-ANA at 1 2 4 5 6 7 9 10 11 12: 51.7 a.u.
2'F-ANA at 3 4 6 11 13 14: 235 a.u.
2'F-ANA at 1 5 6 7 9 10 13: 48.4 a.u.
2'F-ANA at 1 2 6 7 8 10 11: 56.4 a.u.
2'F-ANA at 1 2 4 7 8 12 13: 295 a.u.
2'F-ANA at 2 3 4 7 8 12 14 15: 508 a.u.
2'F-ANA at 1 3 4 5 7 8 11 12 13 15: 81.3 a.u.
2'F-ANA at 2 3 4 5 6 7 8 9 10 12 15: 61.1 a.u.
2'F-ANA at 1 2 5 6 9 11 12 15: 86.6 a.u.
2'F-ANA at 1 2 3 4 5 6 7 8 13: 56.3 a.u.
2'F-ANA at 1 2 3 4 9 11 12 15: 258 a.u.
2'F-ANA at 1 3 4 9 14 15: 77 a.u.
2'F-ANA at 3 4 5 10 13 14 15: 47.1 a.u.
2'F-ANA at 1 2 7 8 11 12 13: 303 a.u.
2'F-ANA at 3 6 8 15: 1050 a.u.
2'F-ANA at 4 10 11 13 15: 124 a.u.
2'F-ANA at 2 5 7 10 11 12 15: 50.5 a.u.
2'F-ANA at 1 3 4 5 6 7 8 11 12 13: 206 a.u.
2'F-ANA at 2 4 6 8 9 10 11 12 13 14: 59.2 a.u.
2'F-ANA at 1 2 4 6 7 8 9 15: 122 a.u.
2'F-ANA at 1 2 5 8 12: 116 a.u.
2'F-ANA at 7 8 9 10 11 12 15: 206 a.u.
2'F-ANA at 3 4 5 7 8 13: 75.2 a.u.
2'F-ANA at 4 8 11 12 14: 135 a.u.
2'F-ANA at 3 4 7 8 9 10 11 12 13 15: 263 a.u.

Sample 3
Target: RNA binding protein fox-1 homolog 2, RRM domain, GST-SBP tag (RBFOX2, Homo sapiens, UniProt O43251-10, residues 100-194)
Method: RNA Bind-n-Seq
Form: RNA
Matrix: in vitro
Tested at: 365 nM
Notes: natural RNA segment, single round, ends assumed
Baseline: no-protein control
Reading: higher = stronger binding
Quantity: RBNS enrichment (R)
Constant ends, left off below: GGGAGUUCUACAGUCCGACGAUC … UGGAAUUCUCGGGUGCCAA
Construct (chain): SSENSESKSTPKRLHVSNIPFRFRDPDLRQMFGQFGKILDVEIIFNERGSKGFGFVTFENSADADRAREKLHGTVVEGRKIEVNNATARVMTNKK
UGUCUCGUGGGGUGGCAUCGGGGCUGCGGGGUGGGGACCCCAAGGCUUUCUGGGGCAGACCCUUGUCCUCUGGGAUGAUGGGCACUGCUAUCCACAGUCUCUGCCAGUUG: 0.295
UUUCUUCCCCCAACUUCUUGCAUGUUGAAGAUAUUUGAGCUAUUUUUCAUCUAAAAGAGUAAGGUAUUAGGCCCUUUUGUGGGAGCCCCAUGUUUUGUUUUUCUGAGUUG: 12.3
AAUUGUUUAUAGUGACCACACUAAUUAUUUUAACUGUACACAUCAGUUUAACAUCUUUUAAAAUUUGAACACUACGUAGUAGGGUGACUAAUUUUUGAAGAAUAUCACAA: 0.437
CAAAAGAGAAGUCUGUGCACCUCAAGUGAGGUCCCAGGAGCUUUCCUCGCCCUCCAAACCAAGCAUUGAGGGUAACCCUCAGAACCCAUUCUCCUAUCUCCUAAAGUGUC: 0.364
CGUGUCCAGGUCCAAAGUGGAGAGCCUGCCUUUGGGUUUAGUUCCCGAAUCAGAAUCCCAUCUCACCAGGGCGAAAUUUUAAUUUAAAAACUUAAAAAGAGACUUUUCUA: 0.409
CCCGCUUCCCCAGUCUUUAAACAUUGGACGCUAUUUACUCAGCUACCCAGUAGAGCUUGAAGCUGACCUUUCUGAGAAGUUGGUAUGGUGUAACACUAAAGUAGGUGGUU: 0.336
UUGUGUGCAUACAUAUUCUACUGAUUAACUACUUUUGCAGUUUUAAUCCUGUAUUAUUUCUUCUACUUUGUUUUGUGUAAAAGGGGAAAAAAUAAAAAAAGCUGGAAUCU: 0.735
AGUUCUGGGUUCACUUAAUGGCUUUGUGAAUGUAAAUAAGGGGCAGGUCUUGGCCCUAGAGGAUUGAGAUGUUUUUCUAAAUCUUAGAACUAUUUUUGGAUAAAUUAUAU: 1.27
GCCAGUCAUGGGAACAUGUCAAAGCCAACAGGAAGCAGAACCUGUAGCUUUCUCUGGCAUUAGGGAGAGAGAACCCUGCUUGCUUCCACUUAACUCCUGGUGGAAGAGGG: 1.81
UGAGGAUCUCAAUUCAUACAGGUGAAAAUCCUUAAAGGACUCUAUGAUUUAAACUCUGGAGUCAAAGCUAGUGUGUGUGUCUGUCUUUGCUCCUGCUAAGACAUGGAAAC: 0.35
UCAGAUUUUAACAGCUGUUACUGUUAUUGGAGAUCGGAGAGUUGGCCUGUUAGAAAUUAAAAAAUACAGUACAGCUUGCCGUUCCUCUGGUUUGUGAAGUUUCACUCGUU: 0.342
UACAUAAAUGCCUUGUGGCAGAGCUCCCGGUGAACUUCUGGAUCCCGUUUCUGAUGCAGACUCUUGUCUUGUUCUCCACUUGUGCUGUUAGAACUCACUGGCCCAGUGGU: 1.11

Sample 4
Target: Interferon regulatory factor 7, full length, phosphomimetic (IRF7, Homo sapiens, UniProt Q92985, residues 1-503, S471D/S472D/S475D/S476D/S477D/S483D/S484D/S487D)
Method: protein-binding microarray
Form: double-stranded DNA, one strand shown
Matrix: in vitro
Tested at: 2200 nM top
Notes: 60-bp whole probe
Together with: salmon DNA 0.4 mg/ml
Baseline: random background probes
Reading: higher = stronger binding
Quantity: fitted relative affinity
Constant ends, left off below: GCCTAGCAC … GTCTTGATTCGCTTGACGCTGCTG
Residues (chain): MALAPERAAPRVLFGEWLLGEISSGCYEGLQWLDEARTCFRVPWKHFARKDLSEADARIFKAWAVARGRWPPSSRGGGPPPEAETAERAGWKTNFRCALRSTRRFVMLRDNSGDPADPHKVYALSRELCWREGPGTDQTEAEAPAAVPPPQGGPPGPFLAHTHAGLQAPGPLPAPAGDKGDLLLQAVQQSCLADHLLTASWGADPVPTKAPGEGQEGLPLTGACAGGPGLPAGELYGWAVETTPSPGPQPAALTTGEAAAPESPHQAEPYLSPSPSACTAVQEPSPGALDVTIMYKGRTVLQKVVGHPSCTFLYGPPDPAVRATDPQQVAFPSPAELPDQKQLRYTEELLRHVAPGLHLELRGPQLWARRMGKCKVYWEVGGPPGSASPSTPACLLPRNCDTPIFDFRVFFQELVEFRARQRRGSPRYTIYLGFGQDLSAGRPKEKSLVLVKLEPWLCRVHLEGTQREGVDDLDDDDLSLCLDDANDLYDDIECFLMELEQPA
TCAAATTACCTTTTCACACTGTGCTAG: 1.24 z-score
TTTCATTTTTTTTTTCATCAGTGCTAG: 8.32 z-score
TCACATTGAGATTTCCAACTGTGCTAG: 1.19 z-score
TTAGGACTGGGGTATAGGTTAGTGCTA: -0.411 z-score
TTAGATAGCAGTTTCGATTAGTGCTAG: 4.88 z-score
TCAATTTTTTTTCTAACACTGTGCTAG: 0.654 z-score
GACGGTATCGTACTGGGGACGTGCTAG: -0.0422 z-score
ACAGCTCTGCGGTTCAGATAGTGCTAG: 0.183 z-score
GACGATCTCAGTCTCAAGACGTGCTAG: 0.124 z-score
TCATGTCCCTGTTTCTAACTGTGCTAG: 2.46 z-score
TCAGATATCGGGTTTCGATTAGTGCTA: 2.99 z-score
GAGGAGATGAGAAACGATGAGTGCTAG: -0.374 z-score
TTACGTATCGACACTGGGTTAGTGCTA: 1.46 z-score
TTCACTTTCTTTACTTCACTGTGCTAG: 3.44 z-score
TCAGGTATTTTTTTGTAACTGTGCTAG: 0.547 z-score
TTTGGTTTCGGTCTCGGTTAGTGCTAG: 7.97 z-score
CTGAGTCCCTATCTCCTCACGTGCTAG: 1.33 z-score
TTAGGTTTCGGACTTGGTTAGTGCTAG: 2.71 z-score
GACGCTATCGGGACTGGAGACGTGCTA: -0.179 z-score
TCATCTTTGCTTCACCCACTGTGCTAG: 2.02 z-score
TCACCCTTTGCTTTCCTACTGTGCTAG: 2.87 z-score
GACGATCTTAGACTGGAGACGTGCTAG: -0.109 z-score
GACGGAATGGGTTTCGGGACGTGCTAG: 1.47 z-score
GACGGACTGGACTATCGGGAGGTGCTA: -0.985 z-score
TTGTGTGTGTGTTTGTGTGTGTGCTAG: 1.34 z-score

For quick reference, copied from above (sample 2):
2'F-ANA at 1 2 4 5 6 7 9 10 11 12: 51.7 a.u.
2'F-ANA at 3 4 6 11 13 14: 235 a.u.
2'F-ANA at 1 5 6 7 9 10 13: 48.4 a.u.
2'F-ANA at 1 2 6 7 8 10 11: 56.4 a.u.
2'F-ANA at 1 2 4 7 8 12 13: 295 a.u.
2'F-ANA at 2 3 4 7 8 12 14 15: 508 a.u.
2'F-ANA at 1 3 4 5 7 8 11 12 13 15: 81.3 a.u.
2'F-ANA at 2 3 4 5 6 7 8 9 10 12 15: 61.1 a.u.
2'F-ANA at 1 2 5 6 9 11 12 15: 86.6 a.u.
2'F-ANA at 1 2 3 4 5 6 7 8 13: 56.3 a.u.
2'F-ANA at 1 2 3 4 9 11 12 15: 258 a.u.
2'F-ANA at 1 3 4 9 14 15: 77 a.u.
2'F-ANA at 3 4 5 10 13 14 15: 47.1 a.u.
2'F-ANA at 1 2 7 8 11 12 13: 303 a.u.
